# Measurements pooled from the literature.
# A part holds a random share of what one study measured. Substitutions count along the parent as printed.

# Study 1 — species: human; sample: microsomes or S9; tested at: 2 µM; time: 0.5 h
Compound,remaining compound [%]
COc1ccc(/C=N/n2cnnc2)cc1COc1cc(C)c(Cl)cc1C(C)C,> 100
Brc1ccc2c3c(ccnc13)CCO2,0.0447
Cn1ncc2cc(C(=O)Nc3ccn(Cc4ccncc4)n3)cc(O)c21,> 100
Brc1ccc2c(c1)C1CC(c3ccco3)=NN1C(c1ccncc1)O2 (stereo not drawn),52.4

# Study 2 — target: DDIT3, bZIP domain (human); method: DHFR protein complementation; sample: yeast; relative to: wild-type JUN-FOS pair; reading: higher = stronger binding
# Setting: single substitutions, most at no-binding floor
# Starting sequence: JUN, bZIP domain (human); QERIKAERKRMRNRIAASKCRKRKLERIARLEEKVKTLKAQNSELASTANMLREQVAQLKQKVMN; partner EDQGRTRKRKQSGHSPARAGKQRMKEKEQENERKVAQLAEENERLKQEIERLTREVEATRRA
Change,binding fitness [natural log]
S43R,0.159
A49R,0.0718
E32R,-0.182
V35C,-0.0524
I28T,-0.17
A29D,-0.0954
A40K,0.165
L59C,-0.148

# Study 3 — read-out: ligand displacement; tested at: 10 µM
# Target: D(4) dopamine receptor (DRD4, Homo sapiens, UniProt P21917)
# Sequence of UniProt P21917 (whole entry, looked up): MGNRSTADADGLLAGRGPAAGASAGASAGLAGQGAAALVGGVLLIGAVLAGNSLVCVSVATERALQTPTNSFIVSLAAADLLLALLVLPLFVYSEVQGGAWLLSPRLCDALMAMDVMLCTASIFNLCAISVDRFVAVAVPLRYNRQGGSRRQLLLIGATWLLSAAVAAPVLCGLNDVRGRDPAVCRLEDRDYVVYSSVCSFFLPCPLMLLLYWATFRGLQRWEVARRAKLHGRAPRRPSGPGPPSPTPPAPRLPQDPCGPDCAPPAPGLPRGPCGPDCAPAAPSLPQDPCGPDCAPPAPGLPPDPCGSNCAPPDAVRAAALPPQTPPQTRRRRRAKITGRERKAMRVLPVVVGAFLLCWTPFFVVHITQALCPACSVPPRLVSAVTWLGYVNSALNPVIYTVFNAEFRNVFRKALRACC
Compound,inhibition [%]
O=C(Nc1ccc(Oc2ccc(F)cc2)cc1)N1CCc2ncccc2[C@H]1c1ccc(F)cc1,0.29
Cn1cc(Cl)c2c(Oc3c(F)cc(Nc4cc(Cl)nc(N)n4)cc3F)ccnc21,11.3
CC1CCN(c2ccnc(NCc3cn(C)cn3)n2)CC1,3.89
C[C@@H](c1cccc(C#N)c1)n1cc(Cl)cc(C(N)=O)c1=N,10.1
O=C(NS(=O)(=O)c1ccc(NCC2CCOCC2)c([N+](=O)[O-])c1)c1ccc(N2CCN(Cc3ccc(C(F)(F)F)cc3-c3ccc(Cl)cc3)CC2)cc1Oc1cnc2[nH]ccc2c1,-34.4
c1ccc(N2CCN(Cc3nc4ccccc4[nH]3)CC2)nc1,61.5
COc1cc(C(=O)O)ncc1C#Cc1ccccc1NS(=O)(=O)c1cccc2c(N(C)C)ccnc12,4.65
COCCOc1nc(-c2ccc(Cl)nc2)nc2c1CN(C(=O)c1ncn3ccccc13)CC2,15.7
CS(=O)(=O)N1CCCC(NC(=O)[C@H](CCC2CCCCC2)NC(=O)c2ccc(CNC(=O)c3cnc4ccccn34)cc2)C1 (stereo partly drawn),3.78
COc1cc(-c2cn(C3CCc4c(F)cccc4N(CC(F)(F)F)C3=O)nn2)ccc1-n1cnc(C)c1 (stereo not drawn),-7.76
CC1=C(C#N)C(c2ccc3[nH]nc(C)c3c2)C(C#N)=C(C)N1,24
Nc1nc(NCc2ccccc2)nc(-c2ccccc2CO)n1,4.35
CN(C)CC#Cc1ccc(OCCCc2sc(N3CCc4cccc(C(=O)Nc5nc6ccccc6s5)c4C3)nc2C(=O)O)c(F)c1,-3.48

# Study 4 — method: competition protein-binding microarray; molecule type: double-stranded DNA, one strand shown; sample: in vitro; tested at: 2 µM; together with: Cbf1 competitor, 0.05 µM; reading: higher = stronger binding; constant ends, left off below: … GTCTTGATTCGCTTGACGCTGCTG
# Target: Phosphate system positive regulatory protein PHO4, full length, GST-tagged (PHO4, Saccharomyces cerevisiae, UniProt P07270, residues 1-312)
# Setting: whole 60-bp probe, lowest competitor level
# Target sequence (chain): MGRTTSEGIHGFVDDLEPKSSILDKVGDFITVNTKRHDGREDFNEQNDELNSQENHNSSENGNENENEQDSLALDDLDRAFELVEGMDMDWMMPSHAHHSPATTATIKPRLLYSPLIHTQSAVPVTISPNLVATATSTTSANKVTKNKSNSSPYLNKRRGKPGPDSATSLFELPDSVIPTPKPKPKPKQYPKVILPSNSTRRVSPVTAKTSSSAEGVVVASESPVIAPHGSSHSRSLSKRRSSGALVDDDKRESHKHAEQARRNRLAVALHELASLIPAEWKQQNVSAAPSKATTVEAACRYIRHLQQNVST
Sequence,fluorescence intensity [a.u.]
CCATCAATTTGGCTACACGTGTTGGTCTAGAACATG,16800
CTAACGAAGGTTTGGTTGGTGGGTGACAAGCCAAGT,3580
CCGGTAACCTACCGTCACGGCCAGATTTTTTCCAAG,3150
CGGGGTTAAGTTTGTGAAGTGGGTGGCTTGCAGCAG,4780
GTCTTGTCTCATTGAACGGTGGGTGTCCCCACTTCA,4470
TGCTCTATGATGTTGCACATGCACTTGTTTTGTTGT,10700
ATCACTACCAAGAATAACGTGACGGTGCATAGGAGC,7750
TTTGGCGCCAATGAACTCGTGGTCGGGACCTCCACC,7980
